# Measurements collected from several papers.
# Every numbered part comes from another study and shows a few of its results, in no order.

# Set 1
# Target: RING finger protein unkempt homolog, zinc fingers 1-6, SBP tag (UNK, Homo sapiens, UniProt Q9C0B0, residues 30-357)
# UniProt Q9C0B0, sequence (30-357, looked up): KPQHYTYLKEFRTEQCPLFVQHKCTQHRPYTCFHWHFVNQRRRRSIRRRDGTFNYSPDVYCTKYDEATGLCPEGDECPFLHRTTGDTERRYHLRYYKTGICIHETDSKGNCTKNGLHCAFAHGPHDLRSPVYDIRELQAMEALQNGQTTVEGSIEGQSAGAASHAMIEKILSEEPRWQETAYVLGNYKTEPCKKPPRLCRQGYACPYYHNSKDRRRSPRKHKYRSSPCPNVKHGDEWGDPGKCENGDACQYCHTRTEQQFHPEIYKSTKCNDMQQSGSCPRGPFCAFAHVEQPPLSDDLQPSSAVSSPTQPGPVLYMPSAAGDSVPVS
# Method: RNA Bind-n-Seq
# Molecule type: RNA
# Medium: in vitro
# Concentration: 100 nM
# Notes: RNA with constant flanks, vertebrate orthologous sites, ends assumed
# Relative to: input RNA pool
# Reading: higher = stronger binding
# All sequences stand within: GGGAGUUCUACAGUCCGACGAUC … CAACAGAGGAUUGAGCAUCA
Strand,bound/input enrichment [ratio]
CCCCGAUUUUAGAUGUGAUAUCUAGGCUUUCAUUCCAGUUUGUUUUUGUCUUUUCUUGUUUAGAUAACCAGUCUUUUAAAUUCUUGCAUUUUAGUAAGAAAGCAACCUUUUUAUGGAUGU,0.86
UUUUUUAAAGUUUUUUAAUUUAUUUUUUUUUCUUUUGGGGGUAAAGUUCGCUCUACCAAAUAGUGAUCGUAACAAAUUGAUCUGUUAUGGAUGUUGCUAUAGUGACAUGCAGUUAUAUCU,1.17
GAGUGCUUAAGCCGCCAACAGUUAGAAGAUGCUAUUUAUUUGUGUCUGUAAGUUUGUACAUAGCAAUGCCAGCCUUGUUGCUGAAUUUUUUAUUUGGGGGGGAUGAGUUUGAAUUUUGUU,1.77
CCAGUUUUCCAUGUAGGGUUGGCCUCAAAUCUAUAGGAUUUUUGACAAAUGUACCAUAUGUAGUUGCAUUGAGUUUUAGUAUUUUUUUAUUAGCCUGUAAAUAAAGAUGGCAUCUCUCCU,3.14
GCACAUGCCGCUAUCACCAAAUGCCAACUGUCACUUUUCAAAUUUCAUUCAGAACCAUUUUAGUGUUUCCUAUUUCCCACCACUUUCAAUGAUGAAGUAGCCUAAGUUCUCCUUCUGACA,1.64
AAUUACACUAAUACUGAAGUUAAAAUUAAAAGGAUAUCCAAGGUGAUGAUAAAGUGUGUGUUGGUAGUUACUAAAAAAACCUUAGCUGUUAUUGCCUUGUAUUUCUAUCCCUUGUUUCAG,0.454
UAAUUCUAUGGUGGACGGGUCUGAAUUGAGGAAGGUUCGCUCCAACUCCAGAGUCUACCACCGUUACUUCCUUCUAGAUGCUGACAUGCAGUCACUGCGGUGGGAGCCGUCGAAAAAAGA,0.241
GCCGUCUGAUUGGAUAAAGACCGUCCCAAGUUACAACCAAACAAACAGUUCAAUGGACUUUAGAAAUUAUAUGAUGCGAGAUGAAAAUCUGGAACCACUGCCCAAAAACUGGGAGAUGGC,0.636
AUUUAGAAUGUAUUUGGUUAUAGUUAAUGAUCUCAUUCCCACGUUCCUUUUUCAUUAACGUAGCUGUAAUAGUAUGAAUGAAUAGGAGGUUUGUGCCAGUAGACAUUGUUACUACAUCAG,0.61
UUUUUAAAGUUUUUUUUUAAUUUAAGUUUUCCUUUUGGGGGUAAAGUUUGCUCUACCAAAUAGUGAUUGUAACAAUUUGAUCUGUUUUGGAUGUUGCUAUAGUGACAUGCAGUUAUAUAU,0.989
CUCUUUUUGCCUUUUUAUCGCCUCAGUGAGGUAAAGACUCCCCUUGAACAUUUUUUUCAGUACUGUAGCCUGAUAUUCUUAACAGACUAUCUCAUUCCCUACAUUGUCAUGAUUUUACUA,0.574

# Set 2
# Target: RNA binding protein fox-1 homolog 2, RRM domain, GST-SBP tag (RBFOX2, Homo sapiens, UniProt O43251-10, residues 100-194)
# Method: RNA Bind-n-Seq
# Molecule type: RNA
# Medium: in vitro
# Concentration: 365 nM
# Notes: natural RNA segment, single round, ends assumed
# Relative to: no-protein control
# Reading: higher = stronger binding
# All sequences stand within: GGGAGUUCUACAGUCCGACGAUC … UGGAAUUCUCGGGUGCCAA
# Target sequence (chain): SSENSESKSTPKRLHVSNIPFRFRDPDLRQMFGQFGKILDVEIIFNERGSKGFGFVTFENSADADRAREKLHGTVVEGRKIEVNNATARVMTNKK
Strand,RBNS enrichment (R)
CUCUCUGAGGCUGGAUGAUCUGGAGGAAGGGGGCAUGGAGCAAAUUUGAGGCUCUGAUUGCUGAGCCAGCCUCCUCCCAGGCGGUUUCCCCAGGACUCUCGUAGGAAAUA,0.584
CUUAACCCUUGGCUCCACCAUAAGGCACUGGGACUCGGAUUUCUCUAUCUGAUAGAGGUAUUUUCUGUGGCCCUGGGAGCUGUCUGUCUUUCCCCUACCCCCAAGGAUGC,0.42
ACAGGCUGGACCUGUGAGAUAUGGUUUGAAUUUUAACCAGUUUAUCACAUAACCUCUAGAGACCAUGCAUCUAGUUAUUGUCAGGAAUAAUUUAAAAGGUUUAGUCGCCA,0.554
GUAGGCCUCUUGACUUUCUUACAUGACUUUCUGCUAAACUACUUUUCAUUUUAAGGGCACACGCAGCAGAGGCUGGUUUGGAGACUAACACAUUUUGCAUUCUGCAUUGU,0.502
CAAACUAAGCACUGUCACUUUCCUUUCUGAACCAUCUCAGCCAAAAAGGCCACCAUGAGGACAUCUCACCAACCUGUGCUCAGCAUGAACUGUGACAUCAGCCUUUGAUA,2.22
AGUAAGGCCCACCUAUGCGGAUUGGGAGGCCUGGCCUCCUGACCCUCACAUCCACCCUCCGCCCUUCCAAUUGCGCUCCCGGUUUGCAGUAAGGAAGAGGGAAGCUGAAG,0.359
UCUCAAAUGGAUCUCGAAGUUCUCUAGUAAGGAGUCCUAAGGAUGACAUGUAUUGGGCCACUAGCAGGGAUUGAAAACAUUUUAAAAGAAAUCCUUUUUCUUAGGAGUAA,0.517
GGGCCUUGUUUUGCAUGUUGAUGAAGAACUACACAAAGAAAACUAAUAUAGUUAAAAGUCAGCUUGCCUUCCCGUAGUAGAAGCAGGUUCUUGGAAGUUACAAUUUAAGG,5.04
CGUAUUCUGCAAUAUGGCUAAACCCUUUCCUGAUUGAGAGUUAAAGCAAUAGGAGUCAAGUUACUGGUGCCACAGAUCUGGAGGUAUGAUAGGUCAGGGGCUAGGUGUUG,2.7
CAAAAAUUAAUGGUUUAGAUAUAUUUAUAAUAAACUGAUUUAAACUUUUUCUAUAAGAAGAAAAAUUAAGACCACUUAUUUGAAAACAAAGAUGAAGUCUCACCUUCCAG,0.614
AGCUUGCAGCCCGGGGACAGAGGCCAGCUGGGAUCUGCCUGAGGACAGAGAACAUGGUCUCCUGCAGGGCCCUGCCUCCCAAGCCCCGCCCUCAGAAAGCCAAGUACCUU,0.251
AAGAGGCUUUGGGAAUAGUUCAUAGGGAAGGGACAACAUGGAAGAAACAGCGAUUUAAAUUGUAUUGAACAGGGCAUAUAAAAUGCAUUCUGUACCCUGAUCUGGCAUAU,1.65

# Set 3
# Target: Fragile X messenger ribonucleoprotein 1, C-terminal low-complexity region (Fmr1, Mus musculus, UniProt P35922)
# Method: RNA Bind-n-Seq
# Molecule type: RNA
# Medium: in vitro
# Concentration: 200 nM
# Notes: whole 134-nt RNA, ends assumed
# Together with: 150 mM KCl
# Relative to: input library
# Reading: higher = stronger binding
# All sequences stand within: GGGAGUUCUACAGUCCGACGAUC … UGGAAUUCUCGGGUGUCAAGG
Strand,log2 enrichment
GUCCUGUGCUACACAUCGUAUGUACCGAAUCGGGUUUUUGGGAAAGGGAAAAAAAGGGAAAGUAUUAUGUUACGCCGUUCGGAUCUGCAC,-0.288
AGUCCUGUGCUACACAUCGUAUGUACCGAAUCGGGGAAAGGGGUUUUUGGGGUGGGGAAAGUAUUAUGUUACGCCGUUCGGAUCUGCACU,0.841
UAACUUUAGAGGAGGAUCUGAUGGAUAUGGCAGUGGACGUGGAUUUGGGGAUGGCUAUAAUGGGUAUGGAGGAGGACCUGGAGGUGGCAU,0.202
ACCAUGCAGGUGGGCAUCUUUGGGAAGUGGGGCAAGGGGGGGAUAGGGAGGGGGGUAACACUUUGGGAAUAGGUGGUCCCAGGUCGUUUC,0.418
CCUGUGCUACACAUCGUAUGUACCGAAUCGGGAAAAAAAGGAAAAAAAGGGAAAAAAAGGGAAAGUAUUAUGUUACGCCGUUCGGAUCUG,-1.01
AAGUCCUGUGCUACACAUCGUAUGUACCGAAUCGGUUUUGGGUUUUGGUUUUGGGGAAAGUAUUAUGUUACGCCGUUCGGAUCUGCACUU,-0.566
CAAGUCCUGUGCUACACAUCGUAUGUACCGAAUCGGAAAAAAAGGAAAAAGGAGGAAAGUAUUAUGUUACGCCGUUCGGAUCUGCACUUC,-0.664
CUCAAGUCCUGUGCUACACAUCGUAUGUACCGAAUCGGAGGAAAAAAAGGAGGAAAGUAUUAUGUUACGCCGUUCGGAUCUGCACUUCCA,-0.121
UCCAAACCCAAGAAAAAGAAAUCUUUUUCCAAGGAGGAGUUGAUGAGUAGCGAUCUUGAAGAGACCGCUGGCAGCACCAGUAUUCCCAAG,-0.775
UAACUUUAGAGGAGGAUCUGAUGGAUAUGGCAGGGGACGUGGAUUUGGGGAUGGCUAUAAUGGGUAUGGAGGAGGACCUGGAGGUGGCAA,0.34

# Set 4
# Target: Sal-like protein 4, full length isoform A (SALL4, Homo sapiens, UniProt Q9UJQ4, residues 1-1053)
# UniProt Q9UJQ4, sequence (whole entry, looked up): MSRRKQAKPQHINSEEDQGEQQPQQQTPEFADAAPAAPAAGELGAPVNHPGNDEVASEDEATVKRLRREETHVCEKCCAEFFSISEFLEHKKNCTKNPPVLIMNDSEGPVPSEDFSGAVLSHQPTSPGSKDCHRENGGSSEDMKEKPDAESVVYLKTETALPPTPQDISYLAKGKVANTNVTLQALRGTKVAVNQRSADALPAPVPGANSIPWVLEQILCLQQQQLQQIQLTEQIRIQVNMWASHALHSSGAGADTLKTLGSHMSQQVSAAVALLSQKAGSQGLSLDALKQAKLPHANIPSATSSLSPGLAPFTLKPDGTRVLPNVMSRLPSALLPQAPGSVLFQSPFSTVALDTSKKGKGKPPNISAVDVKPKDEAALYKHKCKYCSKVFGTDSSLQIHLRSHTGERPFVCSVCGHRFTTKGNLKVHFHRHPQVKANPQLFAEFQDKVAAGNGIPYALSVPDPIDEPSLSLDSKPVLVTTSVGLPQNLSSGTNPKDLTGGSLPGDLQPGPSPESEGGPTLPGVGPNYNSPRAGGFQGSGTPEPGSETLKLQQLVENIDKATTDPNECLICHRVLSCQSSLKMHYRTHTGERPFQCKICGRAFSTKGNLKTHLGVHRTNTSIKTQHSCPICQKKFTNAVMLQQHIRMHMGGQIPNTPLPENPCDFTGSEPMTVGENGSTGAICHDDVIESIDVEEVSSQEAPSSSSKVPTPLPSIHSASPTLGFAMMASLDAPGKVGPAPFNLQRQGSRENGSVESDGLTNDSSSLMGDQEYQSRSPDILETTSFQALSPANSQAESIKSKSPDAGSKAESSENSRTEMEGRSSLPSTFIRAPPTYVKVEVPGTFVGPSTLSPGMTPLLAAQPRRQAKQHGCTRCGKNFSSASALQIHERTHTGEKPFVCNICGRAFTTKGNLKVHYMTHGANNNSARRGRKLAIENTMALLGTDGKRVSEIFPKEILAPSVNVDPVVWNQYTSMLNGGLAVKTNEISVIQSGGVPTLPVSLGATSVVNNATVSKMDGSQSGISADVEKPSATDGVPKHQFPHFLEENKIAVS
# Method: universal PBM
# Molecule type: double-stranded DNA, one strand shown
# Medium: in vitro
# Concentration: 600 nM
# Notes: 8-mer, flanks averaged, mean of replicates
# Reading: higher = stronger binding
Strand,E-score
AGAGGACC,-0.3
TACACGTA,0.0847
CTTACCTA,0.0169
ATCTGAGG,-0.0723
AGCGGTTA,0.0307
CGTCGCCA,-0.166
ACAACTAG,-0.0363
CTGATAAG,0.0712
AATTCATG,0.279
CGTCATTA,0.0434
CGCGTGCC,-0.36
CAACTGTC,-0.112
AAGTCCTC,-0.172
AGGACACA,0.132
ACGAAGTA,0.0415
ACGCGAGA,-0.0701
ACCAGAGT,-0.0829

# A few entries again (set 2):
Strand,RBNS enrichment (R)
CAAACUAAGCACUGUCACUUUCCUUUCUGAACCAUCUCAGCCAAAAAGGCCACCAUGAGGACAUCUCACCAACCUGUGCUCAGCAUGAACUGUGACAUCAGCCUUUGAUA,2.22
CUUAACCCUUGGCUCCACCAUAAGGCACUGGGACUCGGAUUUCUCUAUCUGAUAGAGGUAUUUUCUGUGGCCCUGGGAGCUGUCUGUCUUUCCCCUACCCCCAAGGAUGC,0.42
GUAGGCCUCUUGACUUUCUUACAUGACUUUCUGCUAAACUACUUUUCAUUUUAAGGGCACACGCAGCAGAGGCUGGUUUGGAGACUAACACAUUUUGCAUUCUGCAUUGU,0.502
AGUAAGGCCCACCUAUGCGGAUUGGGAGGCCUGGCCUCCUGACCCUCACAUCCACCCUCCGCCCUUCCAAUUGCGCUCCCGGUUUGCAGUAAGGAAGAGGGAAGCUGAAG,0.359
AGCUUGCAGCCCGGGGACAGAGGCCAGCUGGGAUCUGCCUGAGGACAGAGAACAUGGUCUCCUGCAGGGCCCUGCCUCCCAAGCCCCGCCCUCAGAAAGCCAAGUACCUU,0.251
UCUCAAAUGGAUCUCGAAGUUCUCUAGUAAGGAGUCCUAAGGAUGACAUGUAUUGGGCCACUAGCAGGGAUUGAAAACAUUUUAAAAGAAAUCCUUUUUCUUAGGAGUAA,0.517
